Assay results of several laboratories.

Structure (SMILES)	test system	setting	scale	quantity	value
CCC(CC)O[C@@H]1C=C(C(=O)OC(OC(=O)[C@@H](N)C(C)C)C(C)C)C[C@H](NC(=N)N)[C@H]1NC(C)=O (single isomer, unassigned)	HepG2 cell homogenate		relative to: compound over GOC-ISP-Val isomer	hydrolysis rate ratio	15
CCOC(=O)CCC(=O)Oc1ccc(/C=C/C(=O)/C=C(O)/C=C/c2ccc(OC(=O)CCC(=O)OCC)c(OC)c2)cc1OC	rat plasma	1.5 µM	relative to: rat plasma over buffer pH 7.4	hydrolysis rate ratio	5300
CCCCCC(O)C=CC1OC2OC(C1CC=CCCCC(=O)O)C2(F)F (stereo not shown)	aqueous buffer	pH 2.42		hydrolysis rate constant k1′	1.01e-06 s⁻¹
COC(=O)c1ccc(/C=N/NS(=O)(=O)c2ccc(OC)c(OC)c2)cc1	buffer	concentration not given, time not given, pH 2, 37 °C		hydrolysis	~40%
C=CC(=O)OC1CCC(OC(C)(C)O[C@H]2C[C@H]3OC[C@@]3(OC(C)=O)[C@H]3[C@H](OC(=O)c4ccccc4)[C@]4(O)C[C@H](OC(=O)[C@H](O)[C@@H](NC(=O)c5ccccc5)c5ccccc5)C(C)=C([C@@H](OC(C)=O)C(=O)[C@]23C)C4(C)C)CC1 (stereo partly shown)	phosphate buffer, 40% acetonitrile	50 µM, pH 5.0, 37 °C		hydrolysis half-life	10.2 min
CC(=O)NC1C(N=C(N)N)C=C(C(=O)OC(C)OC(=O)C(N)C(C)C)OC1C(O)C(O)CO (mixture of isomers)	Caco-2 homogenate	concentration not given, pH 7.4, 37 °C	relative to: buffer alone	hydrolysis	no effect
C=CC(=O)OCCCCCCOC(C)(C)OCC1OC(n2ccc(N)nc2=O)C(F)(F)C1O (stereo not shown)	phosphate buffer, 40% acetonitrile	50 µM, pH 5.0, 37 °C		hydrolysis half-life	9.2 min
COC(=O)C(Cc1c[nH]cn1)NC(=O)C1(C)C(O)CCC2(C)C1CCC1(C)C2CC=C2C3C(C)C(C)CCC3(C)CCC21C (stereo not shown)	rat faecal matter in buffer	37 °C		hydrolysis rate constant	0.0009 min⁻¹
CCCCCC(O)C=CC1OC2OC(C2F)C1CC=CCCCC(=O)O (stereo not shown)	50 mM phosphate buffer	pH 7.40, 23 °C		hydrolysis rate constant	2.36e-05 min⁻¹
C=CC(=O)OCCCOC(C)(C)OCC1OC(n2ccc(N)nc2=O)C(F)(F)C1O (stereo not shown)	phosphate buffer, 40% acetonitrile	50 µM, pH 5.0, 37 °C		hydrolysis half-life	30.1 min

Excerpt of the above:
Structure (SMILES)	test system	setting	scale	quantity	value
C=CC(=O)OCCCOC(C)(C)OCC1OC(n2ccc(N)nc2=O)C(F)(F)C1O (stereo not shown)	phosphate buffer, 40% acetonitrile	50 µM, pH 5.0, 37 °C		hydrolysis half-life	30.1 min
